Experimental data pooled from the literature.
Numbers after ± are the reported error.

CC(=O)N[C@H](C(=O)N[C@@H](CCCNC(=N)N)C(=O)N[C@@H](CCCCN)C(=O)N[C@@H](CCCNC(=N)N)C(=O)N[C@H](C(=O)N[C@@]1(C)CCCC=CCCC[C@@](C)(C(=O)N[C@@H](CCC(N)=O)C(=O)N[C@@H](CCC(=O)O)C(=O)N[C@@H](CCCNC(=N)N)C(=O)N[C@@H](CCC(=O)O)C(=O)N[C@@H](CC(C)C)C(=O)N[C@H](C(=O)N[C@@H](CCC(=O)O)C(N)=O)C(C)C)NC(=O)[C@H](CC(C)C)NC(=O)[C@H](CCCNC(=N)N)NC(=O)[C@H](CCCNC(=N)N)NC1=O)[C@@H](C)O)C(C)C — viability (A-431, H2030, H3255, H1975, SK-N-MC; CellTiter-Glo; concentration not given, 18 h): inactive
CC(=O)N[C@H](C(=O)N[C@H](C(=O)N[C@@H](CCCNC(=N)N)C(=O)N1Cc2ccccc2C[C@H]1C(=O)N[C@@H](Cc1ccccc1)C(N)=O)C1CCCCC1)C(C)C — cytokine level (MBP-specific BC-3 T cells; Bio-Plex multiplex, refers to: IL-6; 200 µg/mL, 24 h, with: MBP87-99 antigen): 739 ± 261 pg/mL
COc1cc(CNC(=O)C[C@H](C)CCC=C(C)C)ccc1OCc1cn(-c2cccc(C(F)(F)F)c2)nn1 — growth percent (SW-620; SRB; 10 µM, 48 h): 38.7%
CCN(CC)CCOc1ccc(C(=C(C)Cc2ccc(Cl)cc2)c2ccc(Cl)cc2)cc1 — growth inhibition (NCI-60 tumour cell lines; 10 µM, mean over cell lines): 17.1%
CSC(=S)N/N=C(\C)c1ccc(S(=O)(=O)N2CCC(C)CC2)cc1 — apoptotic cells late (HepG2; annexin V/PI staining; IC50, 72 h): 6.65%
Cc1cc2nc(-c3cc4ccccc4nc3Cl)[nH]c2cc1C — cells in G2 phase (HepG2; flow cytometry; 6 µM, 48 h): 34.8%
O=[N+]([O-])c1ccc(NC2=N[N+](=Cc3cccs3)[Pt-]([Cl])([Cl])[S]2)cc1 — cytotoxic concentration (HEL human lung fibroblasts; altered cell morphology, microscopy; confluent cultures): ≥ 100 µM
Nc1ncnc2c1c(-c1ccc(OC(F)(F)F)cc1)cn2[C@@H]1O[C@H](CO)[C@@H](O)[C@H]1O — EC50 (HEK; cytotoxicity): > 200000 nM
CC[C@H](C)[C@H](NC(=O)[C@@H](NC(=O)[C@@H](N)C(C)C)C(C)C)C(=O)NCC(N)=O — viability (PC-12; Aβ42-induced neurotoxicity, inhibitor, MTT; concentration not given, 6 h, 37 °C, peptide to Aβ42 1:1, with: Aβ42 2 µM; baseline: untreated cells): 80.7%
COc1cc(CNC(=O)C[C@H](C)CCC=C(C)C)ccc1OCc1cn(-c2ccccc2Cl)nn1 — growth percent (SR leukaemia cells; SRB; 10 µM, 48 h): 48.5%
CCCC(CCC)C(=O)[O][Pt]([NH2])([NH2])([Cl])([Cl])[O]C(=O)C(Cl)Cl — selectivity index (HEK293 and LoVo; cytotoxicity, MTT; baseline: IC50 HEK293 over IC50 LoVo): 2.6
COc1cc(CNC(=O)C[C@H](C)CCC=C(C)C)ccc1OCc1cn(-c2ccccc2[N+](=O)[O-])nn1 — growth percent (SW-620; SRB; 10 µM, 48 h): 92.9%
C[C@@H]1O[C@@H](O[C@H]2[C@H](O[C@H]3CC[C@@]4(C)C(CC[C@]5(C)C4CC=C4C6CC(C)(C)CC[C@]6(C(=O)O[C@@H]6O[C@H](CO)[C@@H](O)[C@H](O)[C@H]6O)CC[C@]45C)[C@]3(C)CO)OC[C@H](O)[C@@H]2O)[C@H](O)[C@H](O[C@@H]2OC[C@@H](O)[C@H](O)[C@H]2O)[C@H]1O (stereo partly shown) — glucose consumption (HepG2, palmitic acid-induced insulin resistance; 12.5 µM, 24 h): 9.73 ± 0.39 mM
COc1cc(CNC(=O)C[C@H](C)CCC=C(C)C)ccc1OCc1cn(-c2ccccc2)nn1 — growth percent (SW-620; SRB; 10 µM, 48 h): 98.7%
CC(=O)OC[C@H]1O[C@@H](Sc2sc(C(=O)c3ccc(C)cc3)c(N)c2-c2nc3ccccc3s2)[C@H](OC(C)=O)[C@@H](OC(C)=O)[C@H]1OC(C)=O — growth (M14; SRB; 10 µM, 48 h; baseline: untreated): 92.7%
COc1cc(CNC(=O)C[C@H](C)CCC=C(C)C)ccc1OCc1cn(-c2ccc(F)cc2)nn1 — growth percent (OVCAR-3 ovarian cancer cells; SRB; 10 µM, 48 h): 108%
CCN(CC)CCOc1ccc(C(=C(C)c2ccc(Cl)cc2)c2ccc(Cl)cc2)cc1 — growth inhibition (NCI-60 tumour cell lines; 10 µM, mean over cell lines): 34.1%
COc1cc(CNC(=O)C[C@H](C)CCC=C(C)C)ccc1OCc1cn(-c2ccc([N+](=O)[O-])cc2)nn1 — growth percent (SF-295 CNS cancer cells; SRB; 10 µM, 48 h): 70.2%
COc1cc2c(cc1C)NC(=O)C2=Cc1c(Cl)[nH]c2c1ccc1ccccc12 — TGI (leukaemia subpanel of NCI-60; 48 h): 1000 nM

Excerpt of the above:
COc1cc(CNC(=O)C[C@H](C)CCC=C(C)C)ccc1OCc1cn(-c2ccc(F)cc2)nn1 — growth percent (OVCAR-3 ovarian cancer cells; SRB; 10 µM, 48 h): 108%
CC(=O)N[C@H](C(=O)N[C@H](C(=O)N[C@@H](CCCNC(=N)N)C(=O)N1Cc2ccccc2C[C@H]1C(=O)N[C@@H](Cc1ccccc1)C(N)=O)C1CCCCC1)C(C)C — cytokine level (MBP-specific BC-3 T cells; Bio-Plex multiplex, refers to: IL-6; 200 µg/mL, 24 h, with: MBP87-99 antigen): 739 ± 261 pg/mL
